Assay results from different studies.
A part holds a random share of what one study measured.

Series 1 — method: universal PBM; form: double-stranded DNA, one strand shown; sample: in vitro; tested at: 600 nM; reading: higher = stronger binding
Target: Sal-like protein 4, full length isoform A (SALL4, Homo sapiens, UniProt Q9UJQ4, residues 1-1053)
Sequence of UniProt Q9UJQ4 (whole entry, looked up): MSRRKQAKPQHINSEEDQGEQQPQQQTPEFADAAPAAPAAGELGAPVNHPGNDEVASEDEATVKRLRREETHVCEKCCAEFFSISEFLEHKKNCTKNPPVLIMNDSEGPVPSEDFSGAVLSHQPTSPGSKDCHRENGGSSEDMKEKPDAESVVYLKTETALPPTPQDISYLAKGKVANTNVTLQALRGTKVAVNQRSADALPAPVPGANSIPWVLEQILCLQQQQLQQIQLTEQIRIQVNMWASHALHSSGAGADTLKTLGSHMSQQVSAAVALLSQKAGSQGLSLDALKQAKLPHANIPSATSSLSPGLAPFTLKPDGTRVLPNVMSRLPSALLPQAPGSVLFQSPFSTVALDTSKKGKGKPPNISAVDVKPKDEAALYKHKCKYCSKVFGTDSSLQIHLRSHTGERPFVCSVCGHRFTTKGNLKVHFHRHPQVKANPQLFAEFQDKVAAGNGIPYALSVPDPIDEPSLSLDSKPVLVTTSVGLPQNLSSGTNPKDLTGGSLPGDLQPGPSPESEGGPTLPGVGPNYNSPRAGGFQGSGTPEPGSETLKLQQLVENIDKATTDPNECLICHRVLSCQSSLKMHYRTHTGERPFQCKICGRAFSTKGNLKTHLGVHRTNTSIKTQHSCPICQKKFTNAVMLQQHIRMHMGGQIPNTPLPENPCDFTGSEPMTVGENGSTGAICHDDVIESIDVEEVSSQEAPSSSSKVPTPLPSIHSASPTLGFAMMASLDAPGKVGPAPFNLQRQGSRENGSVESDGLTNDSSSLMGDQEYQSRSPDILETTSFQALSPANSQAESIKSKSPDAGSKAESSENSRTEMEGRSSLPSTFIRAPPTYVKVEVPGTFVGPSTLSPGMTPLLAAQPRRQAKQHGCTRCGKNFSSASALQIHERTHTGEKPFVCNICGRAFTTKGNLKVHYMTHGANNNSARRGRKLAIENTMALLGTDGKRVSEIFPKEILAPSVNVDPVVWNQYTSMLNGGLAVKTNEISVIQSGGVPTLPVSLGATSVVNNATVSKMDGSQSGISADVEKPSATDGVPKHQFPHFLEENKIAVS
Notes: 8-mer, flanks averaged, mean of replicates
Sequence	E-score
AGAAATGC	0.135
ATGAGCTC	-0.0947
CACCCGGC	-0.42
TACCTACA	0.178
TAACAACA	0.231

Series 2 — method: protein binding microarray; form: double-stranded DNA, one strand shown; sample: in vitro; tested at: not given; reference: not given; reading: higher = stronger binding
Target: Histone acetyltransferase KAT6A, winged helix 2, GST fusion (KAT6A, Homo sapiens, UniProt Q92794, residues 85-181)
Notes: 8-mer, flanks averaged, mean of 2 arrays, mostly near background
Residues (chain): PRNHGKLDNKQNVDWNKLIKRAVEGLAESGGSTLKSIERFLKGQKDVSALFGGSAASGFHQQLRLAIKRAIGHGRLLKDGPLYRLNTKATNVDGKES
Sequence	E-score
AGTACAGA	-0.0245
AGCGAGGG	0.0628
GACTTAAA	-0.024

Series 3 — method: protein-binding microarray; form: double-stranded DNA, one strand shown; sample: in vitro; tested at: 0.8 µM; notes: whole 60-bp probe, no competitor; reading: higher = stronger binding
Target: Centromere-binding protein 1, full length, N-terminal tag (CBF1, Saccharomyces cerevisiae, UniProt P17106, residues 1-351)
Sequence of UniProt P17106 (whole entry, looked up): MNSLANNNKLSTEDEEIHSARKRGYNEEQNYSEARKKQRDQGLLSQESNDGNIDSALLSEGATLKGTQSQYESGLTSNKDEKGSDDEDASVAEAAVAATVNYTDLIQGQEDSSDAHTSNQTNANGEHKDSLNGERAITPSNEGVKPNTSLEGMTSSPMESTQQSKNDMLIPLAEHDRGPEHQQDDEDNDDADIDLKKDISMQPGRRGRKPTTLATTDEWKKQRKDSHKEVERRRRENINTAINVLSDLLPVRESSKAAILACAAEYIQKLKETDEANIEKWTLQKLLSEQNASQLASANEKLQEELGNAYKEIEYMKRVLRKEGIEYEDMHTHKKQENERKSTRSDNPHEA
Sequence	fluorescence intensity [a.u.]
CTATTACCATTCCTACACGTTATAAGGACTCAGTTCGTCTTGATTCGCTTGACGCTGCTG	572
CTAACAACAATTATCCACGTGCTTATCACGTTTTTCGTCTTGATTCGCTTGACGCTGCTG	5270
GAACAACAACCAGCTCACGTTGCTGAACAGCCGTAGGTCTTGATTCGCTTGACGCTGCTG	632

Further values, each from its own experiment
Molecule	target	assay	test system	setting	how to read	measurement	result
PhoQ, residues 284 288 289 292 302 303 TSTLRA	PhoP, residues 12 14 15 18 19 DLLYY (Escherichia coli, UniProt P23836)	Sort-seq, item: YFP reporter	E. coli	PhoQ-PhoP variant library, added: 10 µM Mg2+	reference: high Mg2+ state, higher = stronger signaling	fold induction	0.293
